Measurements pooled from the literature.
Parts stem from different laboratories: compare values within a part only. Values joined by “and” are separate records of one study, mostly repeats; a detail may differ.
UniProt Q16853, sequence (whole entry, looked up): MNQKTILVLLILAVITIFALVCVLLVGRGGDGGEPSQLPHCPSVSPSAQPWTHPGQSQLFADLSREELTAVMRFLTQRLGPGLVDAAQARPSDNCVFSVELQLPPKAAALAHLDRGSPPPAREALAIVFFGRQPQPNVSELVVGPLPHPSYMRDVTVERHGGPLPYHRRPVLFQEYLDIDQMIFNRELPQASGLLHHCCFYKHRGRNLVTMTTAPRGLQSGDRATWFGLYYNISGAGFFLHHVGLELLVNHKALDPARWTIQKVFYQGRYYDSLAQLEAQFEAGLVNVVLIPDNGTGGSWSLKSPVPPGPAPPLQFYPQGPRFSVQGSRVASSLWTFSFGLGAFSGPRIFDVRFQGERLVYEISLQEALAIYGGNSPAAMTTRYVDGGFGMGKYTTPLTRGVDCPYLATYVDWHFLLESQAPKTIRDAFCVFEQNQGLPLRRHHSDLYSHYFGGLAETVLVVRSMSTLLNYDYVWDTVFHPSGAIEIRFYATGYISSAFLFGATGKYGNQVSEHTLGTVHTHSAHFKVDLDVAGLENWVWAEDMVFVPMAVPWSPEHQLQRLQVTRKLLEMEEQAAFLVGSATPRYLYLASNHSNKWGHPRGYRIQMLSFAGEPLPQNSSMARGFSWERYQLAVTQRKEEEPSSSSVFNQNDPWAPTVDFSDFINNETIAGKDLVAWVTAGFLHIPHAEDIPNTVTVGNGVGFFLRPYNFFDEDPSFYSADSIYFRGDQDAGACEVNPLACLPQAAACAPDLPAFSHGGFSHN
UniProt P0C1S8, sequence (whole entry, looked up): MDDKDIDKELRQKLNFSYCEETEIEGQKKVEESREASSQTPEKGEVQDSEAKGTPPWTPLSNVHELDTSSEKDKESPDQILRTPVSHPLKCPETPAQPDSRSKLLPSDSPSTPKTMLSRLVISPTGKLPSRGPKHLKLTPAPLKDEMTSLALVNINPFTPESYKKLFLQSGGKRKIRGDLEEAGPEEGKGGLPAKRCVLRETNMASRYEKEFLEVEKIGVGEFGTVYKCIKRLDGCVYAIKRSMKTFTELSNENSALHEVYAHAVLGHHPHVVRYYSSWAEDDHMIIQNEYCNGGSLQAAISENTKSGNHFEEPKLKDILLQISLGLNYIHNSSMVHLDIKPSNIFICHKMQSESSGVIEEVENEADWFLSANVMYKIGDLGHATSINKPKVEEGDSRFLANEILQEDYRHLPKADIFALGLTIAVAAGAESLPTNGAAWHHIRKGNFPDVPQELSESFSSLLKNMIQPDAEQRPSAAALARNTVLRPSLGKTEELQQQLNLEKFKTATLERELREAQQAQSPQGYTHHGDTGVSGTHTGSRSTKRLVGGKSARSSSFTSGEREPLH
UniProt Q13976, sequence (whole entry, looked up): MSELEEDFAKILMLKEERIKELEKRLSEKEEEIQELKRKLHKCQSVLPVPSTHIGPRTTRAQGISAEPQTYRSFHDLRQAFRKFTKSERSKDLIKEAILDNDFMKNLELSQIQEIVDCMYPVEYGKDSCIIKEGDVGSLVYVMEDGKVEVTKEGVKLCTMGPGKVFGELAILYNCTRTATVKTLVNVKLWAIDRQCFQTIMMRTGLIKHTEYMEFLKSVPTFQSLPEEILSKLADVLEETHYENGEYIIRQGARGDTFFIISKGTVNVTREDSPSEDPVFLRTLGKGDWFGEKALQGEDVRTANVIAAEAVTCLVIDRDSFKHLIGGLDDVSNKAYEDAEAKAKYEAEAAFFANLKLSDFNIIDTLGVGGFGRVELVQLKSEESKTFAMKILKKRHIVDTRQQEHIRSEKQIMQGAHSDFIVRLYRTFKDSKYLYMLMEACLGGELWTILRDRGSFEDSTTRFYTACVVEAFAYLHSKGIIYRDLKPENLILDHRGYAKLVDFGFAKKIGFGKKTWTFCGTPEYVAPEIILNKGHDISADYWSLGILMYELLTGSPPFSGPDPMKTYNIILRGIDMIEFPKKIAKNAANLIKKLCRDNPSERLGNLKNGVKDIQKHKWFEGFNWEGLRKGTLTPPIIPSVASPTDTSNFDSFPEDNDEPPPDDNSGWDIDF
UniProt Q13555, sequence (whole entry, looked up): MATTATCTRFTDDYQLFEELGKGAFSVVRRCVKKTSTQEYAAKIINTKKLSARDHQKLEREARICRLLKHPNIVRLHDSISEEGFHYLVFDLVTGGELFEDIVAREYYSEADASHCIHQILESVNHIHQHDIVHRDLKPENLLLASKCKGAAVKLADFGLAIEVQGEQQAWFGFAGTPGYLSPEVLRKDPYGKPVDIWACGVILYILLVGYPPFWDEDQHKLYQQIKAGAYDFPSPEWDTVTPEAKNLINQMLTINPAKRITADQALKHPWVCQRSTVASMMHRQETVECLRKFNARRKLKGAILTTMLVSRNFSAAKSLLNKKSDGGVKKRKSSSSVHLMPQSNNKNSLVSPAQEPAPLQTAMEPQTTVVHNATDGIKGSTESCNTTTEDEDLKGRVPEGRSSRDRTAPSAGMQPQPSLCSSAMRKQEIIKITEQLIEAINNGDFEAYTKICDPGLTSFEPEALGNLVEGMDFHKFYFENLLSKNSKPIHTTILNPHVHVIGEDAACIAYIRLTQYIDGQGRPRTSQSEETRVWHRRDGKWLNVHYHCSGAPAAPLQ

Series 1
SMILES: COc1cc(-c2nc3ccc(C(=O)NCCCN(C)C)cc3n2C2CCC2)cc(OC)c1OC
Measurement: remaining binding
Receptor-type tyrosine-protein kinase FLT3 (FLT3, Homo sapiens, UniProt P36888, N841I); binding, competition with immobilised ligand; 1 µM: 100%
Wee1-like protein kinase 2 (WEE2, Homo sapiens, UniProt P0C1S8); binding, competition with immobilised ligand; 1 µM: 52%
Tyrosine-protein kinase Fgr (FGR, Homo sapiens, UniProt P09769); binding, competition with immobilised ligand; 1 µM: 100%
Eukaryotic translation initiation factor 2-alpha kinase 1 (EIF2AK1, Homo sapiens, UniProt Q9BQI3); binding, competition with immobilised ligand; 1 µM: 71%
Casein kinase I isoform gamma-1 (CSNK1G1, Homo sapiens, UniProt Q9HCP0); binding, competition with immobilised ligand; 1 µM: 97%
Phosphatidylinositol 4,5-bisphosphate 3-kinase catalytic subunit alpha isoform (PIK3CA, Homo sapiens, UniProt P42336, E545A); binding, competition with immobilised ligand; 1 µM: 83%
Mitogen-activated protein kinase 10 (MAPK10, Homo sapiens, UniProt P53779); binding, competition with immobilised ligand; 1 µM: 70%
Activin receptor type-2A (ACVR2A, Homo sapiens, UniProt P27037); binding, competition with immobilised ligand; 1 µM: 100%
MAP/microtubule affinity-regulating kinase 3 (MARK3, Homo sapiens, UniProt P27448); binding, competition with immobilised ligand; 1 µM: 96%
Serine/threonine-protein kinase ICK (CILK1, Homo sapiens, UniProt Q9UPZ9); binding, competition with immobilised ligand; 1 µM: 74%
Bone morphogenetic protein receptor type-1A (BMPR1A, Homo sapiens, UniProt P36894); binding, competition with immobilised ligand; 1 µM: 32%
Ephrin type-A receptor 1 (EPHA1, Homo sapiens, UniProt P21709); KINOMEscan; 1000 nM: 78%
AP2-associated protein kinase 1 (AAK1, Homo sapiens, UniProt Q2M2I8); binding, competition with immobilised ligand; 1 µM: 91%
cGMP-dependent protein kinase 1 (PRKG1, Homo sapiens, UniProt Q13976); binding, competition with immobilised ligand; 1 µM: 98%
Calcium/calmodulin-dependent protein kinase type II subunit gamma (CAMK2G, Homo sapiens, UniProt Q13555); binding, competition with immobilised ligand; 1 µM: 99%
Tyrosine-protein kinase SYK (SYK, Homo sapiens, UniProt P43405); binding, competition with immobilised ligand; 1 µM: 100%
Tyrosine-protein kinase Fes/Fps (FES, Homo sapiens, UniProt P07332); binding, competition with immobilised ligand; 1 µM: 100%

Series 2
SMILES: NC/C(=C\F)COc1ccc(-c2cc(=O)[nH]c(=S)n2CC(N)=O)c(Cl)c1
Observed: enzyme activity
Measurement: inhibition
MPO: Myeloperoxidase (MPO, Homo sapiens, UniProt P05164)
UniProt P05164, sequence (whole entry, looked up): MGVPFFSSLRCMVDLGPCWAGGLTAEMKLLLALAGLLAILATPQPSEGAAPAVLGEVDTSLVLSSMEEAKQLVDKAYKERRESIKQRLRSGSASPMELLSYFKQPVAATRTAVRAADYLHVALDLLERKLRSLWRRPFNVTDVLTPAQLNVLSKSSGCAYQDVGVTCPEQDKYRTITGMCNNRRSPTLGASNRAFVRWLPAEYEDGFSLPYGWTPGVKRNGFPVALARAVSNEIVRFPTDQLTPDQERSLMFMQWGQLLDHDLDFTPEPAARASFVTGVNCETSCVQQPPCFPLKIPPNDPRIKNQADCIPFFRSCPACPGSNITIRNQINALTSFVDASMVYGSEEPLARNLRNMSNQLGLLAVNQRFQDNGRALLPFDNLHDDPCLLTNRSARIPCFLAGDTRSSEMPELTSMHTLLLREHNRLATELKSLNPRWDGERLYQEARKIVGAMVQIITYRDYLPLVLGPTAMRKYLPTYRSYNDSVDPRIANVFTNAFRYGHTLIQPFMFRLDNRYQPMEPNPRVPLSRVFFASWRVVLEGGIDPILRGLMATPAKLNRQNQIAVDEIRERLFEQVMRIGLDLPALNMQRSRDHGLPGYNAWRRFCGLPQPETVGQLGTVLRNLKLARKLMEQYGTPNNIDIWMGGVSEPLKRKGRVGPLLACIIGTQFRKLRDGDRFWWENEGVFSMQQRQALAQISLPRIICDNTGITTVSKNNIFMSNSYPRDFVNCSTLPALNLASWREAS
MPO; inhibitor, fluorescence; 0.1235 µM: 58.1%
MPO; inhibitor, fluorescence; 41.2 nM: 27.8%
MPO; inhibitor, fluorescence; 30 µM: 97.8%
MPO; inhibitor, fluorescence; 2.3 nM: -1.64% and -7.54%
Amine oxidase [copper-containing] 3 (AOC3, Homo sapiens, UniProt Q16853); Amplex Red H2O2 production; 3.333 µM: 98.7%
MPO; inhibitor, fluorescence; 13.7 nM: 9.81%
MPO; inhibitor, fluorescence; 500 pM: -8.51%
MPO; inhibitor, fluorescence; 10 µM: 93.9%

Series 3
Structure (SMILES): C[C@@H]1CN(c2ccc(-c3cc(C(=O)NCCOCCOCCOCCOCCOCCOCCNC(=O)/C=C/c4[nH]cc(C(=O)N[C@@H](CC(N)=O)c5ccc(F)c(Cl)c5)c4-c4ccc(Cl)cc4F)ccc3F)cc2NC(=O)c2ccc(F)cc2C(F)(F)F)C[C@H](C)N1C
Observed: thermal unfolding
Technique: differential scanning fluorimetry
Concentration: 5.5 µM
Reading: higher = more unfolded
Measurement: SYPRO Orange fluorescence
DCAF1: DDB1- and CUL4-associated factor 1 (DCAF1, Homo sapiens, UniProt Q9Y4B6)
UniProt Q9Y4B6, sequence (whole entry, looked up): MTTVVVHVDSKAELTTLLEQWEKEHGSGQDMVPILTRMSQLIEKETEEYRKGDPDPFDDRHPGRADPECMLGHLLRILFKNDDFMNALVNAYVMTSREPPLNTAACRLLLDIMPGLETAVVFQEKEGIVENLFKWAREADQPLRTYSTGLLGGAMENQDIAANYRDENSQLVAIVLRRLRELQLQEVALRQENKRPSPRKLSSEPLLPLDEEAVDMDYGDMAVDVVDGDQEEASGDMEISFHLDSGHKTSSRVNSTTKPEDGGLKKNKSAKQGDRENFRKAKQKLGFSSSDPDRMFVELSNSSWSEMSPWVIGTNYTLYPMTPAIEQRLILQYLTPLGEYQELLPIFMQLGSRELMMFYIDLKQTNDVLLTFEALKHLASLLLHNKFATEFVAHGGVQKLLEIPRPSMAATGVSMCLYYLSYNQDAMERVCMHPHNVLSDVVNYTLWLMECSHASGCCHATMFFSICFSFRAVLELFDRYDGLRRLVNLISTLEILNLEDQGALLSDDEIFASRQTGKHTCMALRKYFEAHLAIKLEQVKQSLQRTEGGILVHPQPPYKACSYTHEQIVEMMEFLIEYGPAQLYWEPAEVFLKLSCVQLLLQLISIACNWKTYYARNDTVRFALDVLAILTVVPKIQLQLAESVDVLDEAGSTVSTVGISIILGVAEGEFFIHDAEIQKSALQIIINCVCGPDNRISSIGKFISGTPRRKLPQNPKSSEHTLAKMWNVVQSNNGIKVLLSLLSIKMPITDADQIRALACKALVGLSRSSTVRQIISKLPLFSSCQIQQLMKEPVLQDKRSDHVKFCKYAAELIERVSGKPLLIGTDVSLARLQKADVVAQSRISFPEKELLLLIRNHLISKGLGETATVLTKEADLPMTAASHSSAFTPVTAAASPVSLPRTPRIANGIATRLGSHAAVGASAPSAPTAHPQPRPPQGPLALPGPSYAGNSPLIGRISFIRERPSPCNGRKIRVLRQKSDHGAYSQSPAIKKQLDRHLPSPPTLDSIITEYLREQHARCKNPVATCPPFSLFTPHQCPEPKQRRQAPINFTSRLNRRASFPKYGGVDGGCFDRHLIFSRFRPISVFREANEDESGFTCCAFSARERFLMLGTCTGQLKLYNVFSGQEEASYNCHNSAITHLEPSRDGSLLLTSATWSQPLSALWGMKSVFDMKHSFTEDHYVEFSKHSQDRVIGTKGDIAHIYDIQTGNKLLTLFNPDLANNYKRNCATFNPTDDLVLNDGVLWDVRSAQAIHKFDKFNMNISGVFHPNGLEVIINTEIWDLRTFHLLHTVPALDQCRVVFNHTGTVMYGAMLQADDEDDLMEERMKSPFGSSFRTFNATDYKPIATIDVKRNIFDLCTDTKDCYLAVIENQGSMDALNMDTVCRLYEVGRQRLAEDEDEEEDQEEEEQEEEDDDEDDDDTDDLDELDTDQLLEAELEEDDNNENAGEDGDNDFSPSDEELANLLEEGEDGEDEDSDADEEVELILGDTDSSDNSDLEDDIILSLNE
WDR5: WD repeat-containing protein 5 (WDR5, Homo sapiens, UniProt P61964)
DCAF1; 83.01 °C: 37700 a.u.
WDR5; 84.41 °C: 63000 a.u.
DCAF1; 46.2 °C: 15100 a.u.
DCAF1; 89.41 °C: 32800 a.u.
DCAF1; 88.81 °C: 33300 a.u.
DCAF1; 38.2 °C: 11000 a.u.
WDR5; 32.6 °C: 13800 a.u.
DCAF1; 44.4 °C: 14300 a.u.
DCAF1; 44 °C: 14100 a.u.
DCAF1; 54.01 °C: 24400 a.u.
DCAF1; 81.21 °C: 39200 a.u.

Series 4
SMILES: CCN1/C(=C/C=C2\CCCC(/C=C/C3=[N+](CC)c4ccccc4C3(C)C)=C2NCCCCCCCCN2CCC(Nc3nc4ccccc4n3Cc3ccc(F)cc3)CC2)C(C)(C)c2ccccc21
Cell line: U-87 MG
Concentration: concentration not given
Reference: DMSO
Measurement: log2 fold change
item: UBC mRNA: 1.83
item: PBK mRNA: -1.99
item: DLGAP1 mRNA: 1.89
item: BRAP mRNA: 0.993
item: FLOT2 mRNA: -1.1
item: KRT80 mRNA: -1.29
item: ZNF618 mRNA: -2.42
item: DCLRE1B mRNA: -1.3
item: PNRC1 mRNA: 2.47
item: SFXN5 mRNA: -1.04
item: HCAR3 mRNA: 5.42
item: PDRG1 mRNA: 1.1

A few entries again (series 2):
Amine oxidase [copper-containing] 3 (AOC3, Homo sapiens, UniProt Q16853); Amplex Red H2O2 production; 3.333 µM: 98.7%
MPO; inhibitor, fluorescence; 10 µM: 93.9%
MPO; inhibitor, fluorescence; 0.1235 µM: 58.1%
MPO; inhibitor, fluorescence; 2.3 nM: -1.64% and -7.54%
MPO; inhibitor, fluorescence; 30 µM: 97.8%
